Results of several laboratories.
Lines come from different studies, so protocols differ. Values after ≈ are worked out from the molar mass of the structure shown.
UniProt P51617, sequence (whole entry, looked up): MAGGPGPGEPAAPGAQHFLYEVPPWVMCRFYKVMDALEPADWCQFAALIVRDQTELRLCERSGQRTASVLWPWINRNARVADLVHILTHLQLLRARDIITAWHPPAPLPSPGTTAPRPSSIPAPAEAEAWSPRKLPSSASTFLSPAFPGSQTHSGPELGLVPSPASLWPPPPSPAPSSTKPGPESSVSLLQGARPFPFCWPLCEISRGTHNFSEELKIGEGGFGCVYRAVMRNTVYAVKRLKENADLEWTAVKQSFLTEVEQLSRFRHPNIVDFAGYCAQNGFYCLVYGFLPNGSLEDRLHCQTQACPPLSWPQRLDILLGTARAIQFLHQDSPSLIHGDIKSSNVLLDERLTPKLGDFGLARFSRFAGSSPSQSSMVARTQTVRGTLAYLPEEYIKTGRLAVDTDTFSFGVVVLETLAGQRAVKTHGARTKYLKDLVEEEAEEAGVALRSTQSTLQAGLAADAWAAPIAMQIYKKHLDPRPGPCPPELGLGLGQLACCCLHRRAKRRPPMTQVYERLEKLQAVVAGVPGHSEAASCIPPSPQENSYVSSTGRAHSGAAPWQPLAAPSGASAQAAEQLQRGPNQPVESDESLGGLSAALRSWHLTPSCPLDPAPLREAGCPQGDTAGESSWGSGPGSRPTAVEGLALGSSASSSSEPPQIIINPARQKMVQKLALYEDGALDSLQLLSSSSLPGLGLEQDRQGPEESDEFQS

SMILES | tested on | assay | test system | setting | endpoint | result
C#Cc1ccc(O)c(C=NNC(=O)c2ccc(COC)cc2)c1 | Cryptococcus neoformans | microbial growth, broth dilution |  | pH 7.4 | MIC80 | 0.015 mg/L (≈ 0.0486 µM)
[2H]c1c([2H])c([C@]2([2H])CCCN2C(=O)C(C)(C)Oc2ccc3cn[nH]c3c2)c([2H])c([2H])c1C([2H])([2H])[2H] | Interleukin-1 receptor-associated kinase 1 (IRAK1, Homo sapiens, UniProt P51617) | binding, competition with immobilised ligand |  | 1 µM | remaining binding | 97%
COc1ccccc1Cn1ccnc1SCC(=O)Nc1cc(C(F)(F)F)ccc1Cl | Plasmodium falciparum | parasite growth, SYBR Green | 3D7 | 72 h | EC50 | 0.402 µM
O=C(NNc1ccc(F)c(F)c1)c1nnc(C23CC4CC(CC(C4)C2)C3)o1 | Rhizoctonia solani | microbial growth |  | 50 µg/mL | inhibition | 42.5%
COC(=O)c1cc(-c2ccc(OC)c(NC(=O)Nc3ccc(Cl)c(Cl)c3)c2)on1 | Pseudomonas aeruginosa | microbial growth, broth dilution | ATCC27853 |  | MIC | > 64 mg/L
O=C(NNc1ccccc1)c1nnc(CC23CC4CC(CC(C4)C2)C3)o1 | Rhizoctonia solani | microbial growth |  | 50 µg/mL | inhibition | 49.7%
COC(=O)c1cc(-c2cccc(NC(=O)Nc3ccc(C)cc3)c2)on1 | Klebsiella pneumoniae | microbial growth, broth dilution | BAA1705 |  | MIC | > 64 mg/L
OC(Cn1cncn1)(Cn1cncn1)c1ccc(F)cc1F | Candida albicans | microbial killing, broth dilution | SP3876 | 48 h | MFC | > 64 µM
C#Cc1cccc(O)c1C=NNC(=O)c1ccc(Br)cc1Br | Cryptococcus neoformans | microbial growth, broth dilution |  | pH 7.4 | MIC80 | 0.031 mg/L (≈ 0.0734 µM)
CCN(CC)CCCC(C)Nc1ccnc2cc(Cl)ccc12 (stereo not shown) | Plasmodium falciparum | parasite growth, SYBR Green | W2 | 48 h, drug-resistant strain, blood stage | IC50 | 0.164 µM
Cc1cc(Nc2ccc(C)c(Cl)c2)n2ncnc2n1 | Plasmodium falciparum | parasite growth, SYBR Green | 3D7 | 72 h | EC50 | > 12.5 µM
Nc1ncnc2c([C@@H]3N[C@H](CO)[C@@H](O)[C@H]3O)c[nH]c12 | Dengue virus | viral replication | Vero 76, DENV2 | 0.9 µM | inhibition | 9.4%
CC(Oc1ccc(C(=O)c2ccc(F)cc2)cc1)C(=O)N1CCc2ccccc21 (stereo not shown) | Plasmodium falciparum | parasite growth, SYBR Green | 3D7 | 72 h | EC50 | 0.0904 µM
O=c1[nH]c2cc(-c3ccc(F)cc3)sc2c(=O)n1O | Human betaherpesvirus 5 | viral replication, inhibitor |  | 10 µM, 7 days | inhibition | 10%
COC(=O)c1cc(-c2cccc(NC(=S)Nc3ccc(C#N)cc3)c2)on1 | Pseudomonas aeruginosa | microbial growth, broth dilution | ATCC27853 |  | MIC | > 64 mg/L
C=C(C)[C@]12C[C@@H](C)[C@@]34O[C@](CCCCCCCCC)(O[C@@H]1[C@@H]3[C@@H]1O[C@]1(CO)[C@@H](O)[C@]1(O)C(=O)C(C)=C[C@H]14)O2 | Human immunodeficiency virus 1 | viral replication | MT4 |  | IC50 | 0.00657 µM
C#Cc1cccc(O)c1C=NNC(=O)c1ccc(Br)c(Br)c1 | Candida albicans | microbial growth |  | pH 7.4 | MIC80 | 16 mg/L (≈ 37.9 µM)
COC(=O)c1cc(-c2cccc(NC(=O)Nc3cccc(F)c3)c2)on1 | Klebsiella pneumoniae | microbial growth, broth dilution | BAA1705 |  | MIC | > 64 mg/L
O=C(NNc1cc(F)ccc1F)c1nnc(C23CC4CC(CC(C4)C2)C3)o1 | Rhizoctonia solani | microbial growth |  | 50 µg/mL | inhibition | 100%
COC(=O)c1cc(-c2cccc(NC(=O)Nc3ccc(Cl)c(C(F)(F)F)c3)c2)on1 | Mycolicibacterium fortuitum | microbial growth, broth dilution | ATCC6841 | 48 h | MIC | > 64 mg/L
C#Cc1ccc(C(=O)NN=Cc2ccc(C#C)cc2O)cc1 | Candida albicans | microbial growth |  | pH 7.4 | MIC80 | 16 mg/L (≈ 55.5 µM)
COC(=O)c1cc(-c2cccc(NC(=O)Nc3ccc(C(F)(F)F)cc3)c2)on1 | Pseudomonas aeruginosa | microbial growth, broth dilution | ATCC27853 |  | MIC | > 64 mg/L
C#Cc1ccc(C(=O)NN=Cc2cc(C#C)ccc2O)cc1 | Cryptococcus neoformans | microbial growth, broth dilution |  | pH 7.4 | MIC80 | 0.015 mg/L (≈ 0.052 µM)
COC(=O)c1cc(-c2cccc(NC(=S)Nc3ccc(F)cc3)c2)on1 | Mycobacteroides chelonae | microbial growth, broth dilution | ATCC35752 | 48 h | MIC | > 64 mg/L
C#Cc1ccc(C(=O)NN=Cc2cccc(C#C)c2O)cc1 | Cryptococcus neoformans | microbial growth, broth dilution |  | pH 7.4 | MIC80 | 0.015 mg/L (≈ 0.052 µM)

Some of these lines once more:
SMILES | tested on | assay | test system | setting | endpoint | result
C#Cc1ccc(O)c(C=NNC(=O)c2ccc(COC)cc2)c1 | Cryptococcus neoformans | microbial growth, broth dilution |  | pH 7.4 | MIC80 | 0.015 mg/L (≈ 0.0486 µM)
O=C(NNc1ccc(F)c(F)c1)c1nnc(C23CC4CC(CC(C4)C2)C3)o1 | Rhizoctonia solani | microbial growth |  | 50 µg/mL | inhibition | 42.5%
COC(=O)c1cc(-c2ccc(OC)c(NC(=O)Nc3ccc(Cl)c(Cl)c3)c2)on1 | Pseudomonas aeruginosa | microbial growth, broth dilution | ATCC27853 |  | MIC | > 64 mg/L
O=c1[nH]c2cc(-c3ccc(F)cc3)sc2c(=O)n1O | Human betaherpesvirus 5 | viral replication, inhibitor |  | 10 µM, 7 days | inhibition | 10%
